Measured values pooled from the literature.
A part holds a random share of what one study measured. Values joined by “and” are separate records of one study, mostly repeats; a detail may differ.
Chain of UniProt Q00536 (whole entry, looked up): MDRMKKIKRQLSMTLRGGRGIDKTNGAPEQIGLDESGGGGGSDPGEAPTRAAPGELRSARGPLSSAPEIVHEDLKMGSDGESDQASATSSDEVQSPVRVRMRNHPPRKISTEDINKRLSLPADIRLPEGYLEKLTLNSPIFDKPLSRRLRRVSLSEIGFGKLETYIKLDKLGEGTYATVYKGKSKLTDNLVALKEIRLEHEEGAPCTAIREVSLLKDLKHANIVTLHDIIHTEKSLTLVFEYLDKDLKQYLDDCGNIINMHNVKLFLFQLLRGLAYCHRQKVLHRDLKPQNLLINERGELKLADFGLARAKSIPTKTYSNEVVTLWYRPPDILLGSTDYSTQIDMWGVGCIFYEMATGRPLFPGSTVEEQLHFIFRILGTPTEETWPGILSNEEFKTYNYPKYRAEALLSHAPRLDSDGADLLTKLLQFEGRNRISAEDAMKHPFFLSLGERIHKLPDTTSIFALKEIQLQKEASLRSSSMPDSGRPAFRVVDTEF
Chain of UniProt P21673 (whole entry, looked up): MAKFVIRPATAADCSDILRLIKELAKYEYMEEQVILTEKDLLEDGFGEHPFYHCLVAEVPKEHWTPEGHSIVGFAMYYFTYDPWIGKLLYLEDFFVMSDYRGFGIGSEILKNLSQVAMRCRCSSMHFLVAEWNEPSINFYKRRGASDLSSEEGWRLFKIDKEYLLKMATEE
Chain of UniProt Q8N4C8 (whole entry, looked up): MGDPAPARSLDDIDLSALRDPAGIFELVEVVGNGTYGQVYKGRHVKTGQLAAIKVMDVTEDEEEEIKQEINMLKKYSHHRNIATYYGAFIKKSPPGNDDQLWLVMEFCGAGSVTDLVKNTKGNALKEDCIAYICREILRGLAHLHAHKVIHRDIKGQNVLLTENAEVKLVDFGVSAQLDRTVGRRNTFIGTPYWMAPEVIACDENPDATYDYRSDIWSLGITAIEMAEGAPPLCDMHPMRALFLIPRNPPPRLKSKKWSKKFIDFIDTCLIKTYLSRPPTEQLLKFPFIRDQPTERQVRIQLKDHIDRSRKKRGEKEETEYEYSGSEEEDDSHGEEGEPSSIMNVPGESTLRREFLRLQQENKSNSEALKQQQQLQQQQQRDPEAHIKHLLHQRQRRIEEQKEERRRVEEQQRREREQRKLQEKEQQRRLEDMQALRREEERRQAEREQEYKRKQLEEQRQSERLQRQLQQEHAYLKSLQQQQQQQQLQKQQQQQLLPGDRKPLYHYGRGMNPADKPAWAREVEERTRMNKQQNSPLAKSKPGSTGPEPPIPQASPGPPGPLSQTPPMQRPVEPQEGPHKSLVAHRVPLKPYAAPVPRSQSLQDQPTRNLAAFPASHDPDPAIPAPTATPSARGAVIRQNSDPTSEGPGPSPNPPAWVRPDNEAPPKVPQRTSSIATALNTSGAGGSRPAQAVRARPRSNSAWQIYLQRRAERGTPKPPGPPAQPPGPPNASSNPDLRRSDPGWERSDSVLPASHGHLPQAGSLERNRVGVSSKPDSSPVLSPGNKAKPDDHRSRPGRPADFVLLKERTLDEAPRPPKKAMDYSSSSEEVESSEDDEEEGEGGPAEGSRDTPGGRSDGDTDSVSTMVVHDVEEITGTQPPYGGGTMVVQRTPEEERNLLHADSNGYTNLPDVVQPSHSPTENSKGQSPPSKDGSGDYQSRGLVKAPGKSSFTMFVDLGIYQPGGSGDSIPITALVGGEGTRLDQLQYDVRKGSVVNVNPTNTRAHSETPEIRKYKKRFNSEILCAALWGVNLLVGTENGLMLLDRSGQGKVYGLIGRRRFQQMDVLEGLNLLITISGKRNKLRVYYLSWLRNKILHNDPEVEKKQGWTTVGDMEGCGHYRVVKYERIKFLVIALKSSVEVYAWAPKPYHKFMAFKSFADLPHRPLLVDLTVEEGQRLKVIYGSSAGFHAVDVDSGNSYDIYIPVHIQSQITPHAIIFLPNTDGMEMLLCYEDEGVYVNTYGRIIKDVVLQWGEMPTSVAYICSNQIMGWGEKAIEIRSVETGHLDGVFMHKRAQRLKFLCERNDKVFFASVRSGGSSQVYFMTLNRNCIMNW
Chain of UniProt Q9Y2K2 (whole entry, looked up): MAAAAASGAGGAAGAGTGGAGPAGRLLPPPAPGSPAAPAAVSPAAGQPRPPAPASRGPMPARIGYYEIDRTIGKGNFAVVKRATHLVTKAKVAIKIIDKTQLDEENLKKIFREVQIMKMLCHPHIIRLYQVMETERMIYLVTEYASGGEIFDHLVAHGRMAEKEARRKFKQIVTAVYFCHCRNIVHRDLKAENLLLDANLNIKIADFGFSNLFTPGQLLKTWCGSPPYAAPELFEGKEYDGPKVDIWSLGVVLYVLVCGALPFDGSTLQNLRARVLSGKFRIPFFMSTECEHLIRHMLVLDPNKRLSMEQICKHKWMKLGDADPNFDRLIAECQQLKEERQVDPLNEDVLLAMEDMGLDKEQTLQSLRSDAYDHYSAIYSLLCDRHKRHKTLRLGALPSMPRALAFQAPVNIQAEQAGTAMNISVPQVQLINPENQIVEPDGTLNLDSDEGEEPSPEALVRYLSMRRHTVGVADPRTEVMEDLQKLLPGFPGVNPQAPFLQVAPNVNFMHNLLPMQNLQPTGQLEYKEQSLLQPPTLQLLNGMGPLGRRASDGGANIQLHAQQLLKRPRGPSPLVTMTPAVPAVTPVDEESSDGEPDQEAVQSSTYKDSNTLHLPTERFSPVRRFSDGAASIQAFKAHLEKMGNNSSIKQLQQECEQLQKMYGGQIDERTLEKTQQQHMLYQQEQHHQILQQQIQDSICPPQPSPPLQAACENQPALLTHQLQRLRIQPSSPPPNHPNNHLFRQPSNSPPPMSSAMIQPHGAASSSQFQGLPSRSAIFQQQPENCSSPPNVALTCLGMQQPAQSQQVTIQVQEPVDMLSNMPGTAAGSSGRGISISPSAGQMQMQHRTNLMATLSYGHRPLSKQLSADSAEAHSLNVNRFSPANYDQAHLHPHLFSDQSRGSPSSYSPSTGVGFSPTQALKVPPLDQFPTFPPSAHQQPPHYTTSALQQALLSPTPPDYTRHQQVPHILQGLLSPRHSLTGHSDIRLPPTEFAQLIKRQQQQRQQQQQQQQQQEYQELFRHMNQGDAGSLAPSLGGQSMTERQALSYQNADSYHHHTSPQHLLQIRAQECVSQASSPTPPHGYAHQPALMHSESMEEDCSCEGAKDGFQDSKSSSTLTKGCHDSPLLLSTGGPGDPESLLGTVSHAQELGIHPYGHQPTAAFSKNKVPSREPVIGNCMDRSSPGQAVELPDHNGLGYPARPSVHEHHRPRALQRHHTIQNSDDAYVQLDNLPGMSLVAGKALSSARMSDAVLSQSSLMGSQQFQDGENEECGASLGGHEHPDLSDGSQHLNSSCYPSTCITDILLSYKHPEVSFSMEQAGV
Chain of UniProt Q13164 (whole entry, looked up): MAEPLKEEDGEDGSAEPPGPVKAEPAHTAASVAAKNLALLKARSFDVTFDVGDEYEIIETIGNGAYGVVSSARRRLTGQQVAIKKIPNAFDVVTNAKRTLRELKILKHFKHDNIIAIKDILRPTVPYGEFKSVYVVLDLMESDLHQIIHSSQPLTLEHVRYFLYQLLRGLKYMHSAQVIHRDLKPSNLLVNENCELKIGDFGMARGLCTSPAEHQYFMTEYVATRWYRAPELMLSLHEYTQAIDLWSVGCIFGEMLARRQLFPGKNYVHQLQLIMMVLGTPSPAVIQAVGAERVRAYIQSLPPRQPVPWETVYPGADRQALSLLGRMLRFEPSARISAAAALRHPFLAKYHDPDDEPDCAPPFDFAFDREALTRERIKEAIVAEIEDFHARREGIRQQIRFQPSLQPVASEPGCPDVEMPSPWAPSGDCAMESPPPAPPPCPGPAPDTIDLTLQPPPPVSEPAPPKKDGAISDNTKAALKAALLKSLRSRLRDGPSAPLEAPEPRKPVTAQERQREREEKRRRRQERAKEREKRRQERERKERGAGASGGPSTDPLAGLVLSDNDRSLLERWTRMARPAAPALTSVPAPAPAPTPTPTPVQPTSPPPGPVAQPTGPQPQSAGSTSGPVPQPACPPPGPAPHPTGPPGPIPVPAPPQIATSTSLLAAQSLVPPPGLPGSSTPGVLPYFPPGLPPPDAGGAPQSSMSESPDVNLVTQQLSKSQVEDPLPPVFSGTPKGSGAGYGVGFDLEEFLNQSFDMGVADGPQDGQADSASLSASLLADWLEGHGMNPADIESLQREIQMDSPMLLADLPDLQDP
Chain of UniProt P54646 (whole entry, looked up): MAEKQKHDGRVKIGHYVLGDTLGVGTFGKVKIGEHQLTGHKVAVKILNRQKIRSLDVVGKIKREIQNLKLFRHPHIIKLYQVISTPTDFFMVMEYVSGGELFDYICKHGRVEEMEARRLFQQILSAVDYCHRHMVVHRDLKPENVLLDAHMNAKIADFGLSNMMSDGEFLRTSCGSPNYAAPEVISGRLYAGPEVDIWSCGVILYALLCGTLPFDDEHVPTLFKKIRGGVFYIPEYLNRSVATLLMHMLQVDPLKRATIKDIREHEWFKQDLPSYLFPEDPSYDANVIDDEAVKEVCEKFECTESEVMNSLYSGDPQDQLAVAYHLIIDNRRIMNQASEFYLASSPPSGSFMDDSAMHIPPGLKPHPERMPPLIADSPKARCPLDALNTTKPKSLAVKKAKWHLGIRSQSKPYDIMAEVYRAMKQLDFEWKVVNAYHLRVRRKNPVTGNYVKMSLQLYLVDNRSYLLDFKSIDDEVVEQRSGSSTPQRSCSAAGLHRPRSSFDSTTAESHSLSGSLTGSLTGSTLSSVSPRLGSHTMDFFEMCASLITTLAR
Chain of UniProt Q96PN8 (whole entry, looked up): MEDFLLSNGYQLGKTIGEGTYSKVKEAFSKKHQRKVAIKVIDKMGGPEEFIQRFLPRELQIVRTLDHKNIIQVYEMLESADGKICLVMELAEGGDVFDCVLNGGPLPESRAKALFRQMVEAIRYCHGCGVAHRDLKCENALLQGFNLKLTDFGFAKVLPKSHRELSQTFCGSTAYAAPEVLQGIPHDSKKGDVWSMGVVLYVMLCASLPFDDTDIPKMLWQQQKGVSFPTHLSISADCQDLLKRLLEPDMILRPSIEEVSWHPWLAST

Block 1
Organism: Sarcocystis neurona
Effect on: parasite growth
Concentration: 10 µM
Time: 96 h
Setting: second screen
Relative to: untreated
| Compound | log2 fold change |
| --- | --- |
| CO[C@H]1/C=C/O[C@@]2(C)Oc3c(C)c(O)c4c(O)c(c5c(nc6cc(C)ccn65)c4c3C2=O)NC(=O)/C(C)=C\C=C\[C@H](C)[C@H](O)[C@@H](C)[C@@H](O)[C@@H](C)[C@H](OC(C)=O)[C@@H]1C | 0.51 |
| NC[C@H]1CC[C@H](C(=O)Oc2ccc(CCC(=O)O)cc2)CC1 | 0.33 |
| CCCCC(=O)N(Cc1ccc(-c2ccccc2-c2nnn[nH]2)cc1)[C@H](C(=O)O)C(C)C | 0.59 |

Block 2
Structure (SMILES): O=C(Nc1cccnn1)N1CCC(=Cc2cccc(Oc3ccc(C(F)(F)F)cn3)c2)CC1
Technique: competition with immobilised ligand
Concentration: 1 µM
| target | effect on | remaining binding [%] |
| --- | --- | --- |
| GRK3 (Homo sapiens, UniProt P35626) | cell-free assay | 100 |
| MAPK7 (Homo sapiens, UniProt Q13164) | cell-free assay | 100 |
| PRKAA2 (Homo sapiens, UniProt P54646) | cell-free assay | 100 |
| CDK16 (Homo sapiens, UniProt Q00536) | cell-free assay | 100 |
| NEK1 (Homo sapiens, UniProt Q96PY6) | cell-free assay | 98 |
| SIK3 (Homo sapiens, UniProt Q9Y2K2) | cell-free assay | 83 |
| Myosin-IIIa (MYO3A, Homo sapiens, UniProt Q8NEV4) | cell-free assay | 100 |
| Tyrosine-protein kinase ABL1, non-phosphorylated (ABL1, Homo sapiens, UniProt P00519, Q252H) | cell-free assay | 75 |
| RIOK2 (Homo sapiens, UniProt Q9BVS4) | cell-free assay | 100 |
| PHKG1 (Homo sapiens, UniProt Q16816) | cell-free assay | 100 |
| TSSK3 (Homo sapiens, UniProt Q96PN8) | cell-free assay | 100 |
| Tyrosine-protein kinase ABL1, phosphorylated (ABL1, Homo sapiens, UniProt P00519, E255K) | binding | 85 |
| MINK1 (Homo sapiens, UniProt Q8N4C8) | cell-free assay | 100 |

Block 3
Cell line: A-375
Concentration: 100 µM
Time: 36 h
| SMILES | viability [%] |
| --- | --- |
| CC[C@@H]([C@H](C)O)n1ncn(-c2ccc(N3CCN(c4ccc(OC[C@@H]5CO[C@@](Cn6cncn6)(c6ccc(F)cc6F)C5)cc4)CC3)cc2)c1=O | 61 |
| COCCCOc1cc(C[C@@H](C[C@H](N)[C@@H](O)C[C@H](C(=O)NCC(C)(C)C(N)=O)C(C)C)C(C)C)ccc1OC | 92.9 |
| CCCS(=O)(=O)Nc1ccc(F)c(C(=O)c2c[nH]c3ncc(-c4ccc(Cl)cc4)cc23)c1F | 3.38 |
| C#CC1(O)CC[C@H]2[C@@H]3CCC4=CC(=O)CC[C@@H]4[C@H]3CC[C@@]21CC (stereo partly drawn) | 50.2 |
| Cc1nccnc1N1CCCCC1 | 113 |

Block 4
Host: human
Matrix: microsomes or S9
Concentration: 2 µM
Time: 0.5 h
| Structure (SMILES) | remaining compound |
| --- | --- |
| CC(C)(CNC(=O)[C@@H]1OCC[C@@H]1Cn1cccn1)C1CCOCC1 | 54.5% |
| CC(C)(CCS(C)(=O)=O)CNc1cc(C#N)nc2ccccc12 | 80.7% |
| O=C1Cn2nnc(C(=O)c3ccccc3)c2C2(CCCCC2)O1 | > 100% |
| CC(C)(C)c1cnnn1-c1ccc(C(=O)COC(=O)c2ccccc2)cc1 | 0.0746% |

Mixed results
| Compound | target or system | assay | test system | setting | how to read | quantity | result |
| --- | --- | --- | --- | --- | --- | --- | --- |
| CC(=O)N[C@@H](Cc1c[nH]c2ccccc12)C(=O)N[C@@H](CCC(=O)C=[N+]=[N-])C(=O)OC(C)C | – | UPLC-MS/MS | EL4 tumor, C57BL/6 CES1-/- mice, tumor | subcutaneous, 0.3 mg/kg DON equivalent daily, 5 days | higher = more metabolite | serotonin level | 577000 a.u. and 760000 a.u. and 374000 a.u. and 1.18e+06 a.u. and 1.34e+06 a.u. and 508000 a.u. |
| O=C(/C=C/c1ccc(O)c(O)c1)O[C@@H]1C[C@@](OC(=O)/C=C/c2ccc(O)c(O)c2)(C(=O)O)C[C@@H](O)[C@@H]1O | Diamine acetyltransferase 1 (Homo sapiens, UniProt P21673) | inhibitor | – | 10 µM | relative to: control | remaining activity | 101% |
